Assay results pooled from the literature.
Numbered parts are unrelated; each lists some results of a single study. Changes are numbered by the printed parent chain.

Sample 1 — technique: RNA Bind-n-Seq; form: RNA; matrix: in vitro; concentration: 365 nM; reference: no-protein control; reading: higher = stronger binding; measurement: RBNS enrichment (R)
Target: RNA binding protein fox-1 homolog 2, RRM domain, GST-SBP tag (RBFOX2, Homo sapiens, UniProt O43251-10, residues 100-194)
Notes: natural RNA segment, single round, ends assumed
Construct (chain): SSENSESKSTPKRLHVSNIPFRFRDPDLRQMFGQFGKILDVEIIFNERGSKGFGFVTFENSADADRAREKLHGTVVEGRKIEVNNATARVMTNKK
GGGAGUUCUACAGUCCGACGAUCUUGUGACUCUGUUGCUAACGGUUACCACUUCCGAUCGCCCUGUACAUACAUAUGCCGUAAGGCGCAAUCACUGUUUCAGACUUAAAAUUAUUAGUGUGUUUGUUUGGUCCUGGAAUUCUCGGGUGCCAA: 0.571
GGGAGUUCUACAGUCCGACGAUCGACCUCUUCAAGUUUUAGGGCUGCCCCUGCCAUCCCUAUUGGAGAUUGUGAAUCCUGCUGUCUGUGCAGGGCUCAUAGUGAGUGUUCUGUGAGGUGGGUGGAGACUCCUCUGGAAUUCUCGGGUGCCAA: 0.485
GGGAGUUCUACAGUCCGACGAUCGCGCUAUGGACAAAAAAAGAAAAAGAUCCACUAAAAGAAAGAUUUAGAUGGCUUCUUGCCAGUUUGAGCCUAAUCUGAUUCUUACAGUUUUACCUUCUUGAACCAAUGUAUGGAAUUCUCGGGUGCCAA: 1.12
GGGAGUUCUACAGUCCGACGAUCUGAGCUUCUCUCUUUGAAGGAUUCUAACAGAACAAAGCUGCUGAUCAACCUAAGUUGGAAACAGAAAGUGUAAUUAAUAUAACUUAAAUGCAUGUUUGGCAGUUCCAUGUUGGAAUUCUCGGGUGCCAA: 2.31
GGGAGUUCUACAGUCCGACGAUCCUUUUAGUGUUUGUACUGCUGCUGGUCAGAAUGUUGUUAACUGCUCAGUUCUAGGAAGCAGGAGAGCUCGCUUGUGCAGUGUCCCACACAGCAGGGCUGAGGGGCCUAGGUGGAAUUCUCGGGUGCCAA: 0.953
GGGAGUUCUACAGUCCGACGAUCUCAGACAACUAGUUGUCUGACAGAAAUGUUAGGCUUCAUGUAUGUUACCCCAGUACUGUUAGAAACAUUUGUACUAGGUUAUAAGAUCUUUCUGUGACAGGUAACAAAUUUGGAAUUCUCGGGUGCCAA: 0.256
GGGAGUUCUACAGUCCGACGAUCUCAGCUGCCCAGGCCCCAGCAUGGAGAUGGCCUGCACAGCAGGCUCAGCACCUCUGAGGUGUGCAUUAGCCACUUAUAGCAGCAGUCUGUACUCUUUCAAGUACGCAAGCUGGAAUUCUCGGGUGCCAA: 3.03
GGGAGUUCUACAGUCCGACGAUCCCUUUUCUCCCUCCCUCUCCCUCUGCAAGCCAAGCUGCAUGCACCCAUGCAUGAGUGGUUCUUGCACCCCUGAAUGAGGAAUGCUUCCUCUGUGACAGGCUCCUCCCCACUGGAAUUCUCGGGUGCCAA: 5.79

Sample 2 — technique: universal PBM; form: double-stranded DNA, one strand shown; matrix: in vitro; concentration: not given; reading: higher = stronger binding; measurement: E-score
Target: Sal-like protein 4, full length isoform B (SALL4, Homo sapiens, UniProt Q9UJQ4-2, residues 1-616)
Notes: 8-mer, flanks averaged, mean of replicates
Residues (chain): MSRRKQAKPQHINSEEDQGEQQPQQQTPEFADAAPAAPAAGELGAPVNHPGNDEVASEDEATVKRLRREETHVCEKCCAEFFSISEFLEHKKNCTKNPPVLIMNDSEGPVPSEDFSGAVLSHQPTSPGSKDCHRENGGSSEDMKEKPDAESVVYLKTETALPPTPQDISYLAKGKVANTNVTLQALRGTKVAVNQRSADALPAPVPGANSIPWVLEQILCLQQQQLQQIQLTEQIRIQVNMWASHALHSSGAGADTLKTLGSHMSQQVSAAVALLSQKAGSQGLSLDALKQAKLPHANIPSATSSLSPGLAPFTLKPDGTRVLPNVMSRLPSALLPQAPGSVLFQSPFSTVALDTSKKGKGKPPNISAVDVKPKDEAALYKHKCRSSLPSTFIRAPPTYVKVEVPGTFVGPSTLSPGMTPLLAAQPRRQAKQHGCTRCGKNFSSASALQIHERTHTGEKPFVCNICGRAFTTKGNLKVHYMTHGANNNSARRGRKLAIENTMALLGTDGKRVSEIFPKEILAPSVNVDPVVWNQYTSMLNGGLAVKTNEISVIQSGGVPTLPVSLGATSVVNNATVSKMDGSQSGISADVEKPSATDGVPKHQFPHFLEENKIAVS
AAAGGACA: 0.0132
GACAAAGA: 0.107
CATGGAGA: 0.0312
ACCCATCT: 0.18
AACAACGC: 0.115
AAATAAAG: 0.164
ATTGTGGA: 0.169
GAACCGCC: -0.245
GCGAGGCC: -0.345
ACAGGGTC: -0.251
AAAATGGG: 0.11
AGCTTCAA: 0.176
GGCACGAA: -0.112
CGAACCAG: -0.0834
AGCTGTAT: 0.0917
CCTCGGAG: -0.301
TATTTAAA: 0.381
CGGGCGAA: -0.155
TAATACCA: 0.236
CTCAGGGC: -0.252
ACAGGACC: -0.232
AGGACAAG: -0.0725
CCATTGAG: 0.1
AGGCTACC: -0.219
ACAGACGG: -0.176

Sample 3 — technique: RNA Bind-n-Seq; form: RNA; matrix: in vitro; concentration: 200 nM; notes: whole 134-nt RNA, ends assumed; together with: 150 mM LiCl; reference: input library; reading: higher = stronger binding; measurement: log2 enrichment; each molecule: 7-deaza-guanosine replaces G
Target: Ras GTPase-activating protein-binding protein 1, full length (G3BP1, Homo sapiens, UniProt Q13283)
Sequence of UniProt Q13283 (whole entry, looked up): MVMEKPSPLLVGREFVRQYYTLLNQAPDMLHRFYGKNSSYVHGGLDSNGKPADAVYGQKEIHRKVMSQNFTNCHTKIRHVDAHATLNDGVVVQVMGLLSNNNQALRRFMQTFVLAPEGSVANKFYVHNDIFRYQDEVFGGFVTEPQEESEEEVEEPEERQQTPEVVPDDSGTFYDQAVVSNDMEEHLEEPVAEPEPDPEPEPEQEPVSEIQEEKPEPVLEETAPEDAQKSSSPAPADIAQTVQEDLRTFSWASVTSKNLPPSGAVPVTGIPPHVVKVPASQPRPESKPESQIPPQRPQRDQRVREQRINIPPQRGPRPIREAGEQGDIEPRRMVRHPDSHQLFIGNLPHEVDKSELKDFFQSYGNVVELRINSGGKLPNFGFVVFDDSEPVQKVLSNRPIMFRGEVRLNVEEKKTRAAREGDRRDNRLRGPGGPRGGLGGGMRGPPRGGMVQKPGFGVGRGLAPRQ
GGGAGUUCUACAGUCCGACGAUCGUCCUGUGCUACACAUCGUAUGUACCGAAUCGGAAAAAGGGAAAAAGGGGAAAAAGGGGAAAGUAUUAUGUUACGCCGUUCGGAUCUGCAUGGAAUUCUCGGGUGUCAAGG: 0.084
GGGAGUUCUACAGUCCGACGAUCUUCCUUUCCGUUGUGUGUUUUAAAGGUGUGUGCCCUCUUCCUGAUUCUGGAGAAAAAUGCCGGUCCGGAAGCAAGGUGAGAGUUUAUUCCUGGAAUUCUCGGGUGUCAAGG: 1.24
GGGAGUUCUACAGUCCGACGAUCCAAGUCCUGUGCUACACAUCGUAUGUACCGAAUCGGAAAAGGGAAAAGGGAAAAGGAAAGUAUUAUGUUACGCCGUUCGGAUCUGCACUUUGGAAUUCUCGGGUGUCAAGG: -1.08
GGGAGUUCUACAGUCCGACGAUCGCAGGAAGUAAAAACAAAUGGAAAUGCUUCGGAUAGUGGCAGGGGUGGGGGUUGCUAAGGACAGGGUGGGAUGGGAGUGGGUAAAGAGUUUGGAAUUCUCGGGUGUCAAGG: -0.111
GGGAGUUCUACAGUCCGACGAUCUAACUUUAGAGGAGGAUCUGAUGGAUAUGGCAGUGGACGUGGAUUUGGGGAUGGCUAUAAUGGGUAUGGAGGAGGACCUGGAGGGGGCAAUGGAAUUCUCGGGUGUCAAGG: 0.0999
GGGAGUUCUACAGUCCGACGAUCCAAGUCCUGUGCUACACAUCGUAUGUACCGAAUCGGAAAGGUUUGGUUUUUUUGGAAAGUAUUAUGUUACGCCGUUCGGAUCUGCACUUCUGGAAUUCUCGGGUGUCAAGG: -0.996
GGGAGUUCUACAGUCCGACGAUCCUCAAGUCCUGUGCUACACAUCGUAUGUACCGAAUCGGGGUGGGUGGGUGGGGAAAGUAUUAUGUUACGCCGUUCGGAUCUGCACUUCCAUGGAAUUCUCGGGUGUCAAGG: -1.27
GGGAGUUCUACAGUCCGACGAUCGAGUCCGGUUCGUGUUCGUCCGCGGAGAUCUCUCUCAUCUCGCUCGGCUGCGGGAAAUCGGGCUGAAGCGACUGAGUCCGCGAUGGAGGUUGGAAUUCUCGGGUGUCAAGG: -1.04

Sample 4 — technique: RNA Bind-n-Seq; form: RNA; matrix: in vitro; concentration: not given; notes: RNA with constant flanks, ends assumed; reference: input RNA pool; reading: higher = stronger binding; measurement: bound/input enrichment
Target: RING finger protein unkempt homolog, zinc fingers 1-6, GST-SBP tag (UNK, Homo sapiens, UniProt Q9C0B0, residues 30-357)
Residues (chain): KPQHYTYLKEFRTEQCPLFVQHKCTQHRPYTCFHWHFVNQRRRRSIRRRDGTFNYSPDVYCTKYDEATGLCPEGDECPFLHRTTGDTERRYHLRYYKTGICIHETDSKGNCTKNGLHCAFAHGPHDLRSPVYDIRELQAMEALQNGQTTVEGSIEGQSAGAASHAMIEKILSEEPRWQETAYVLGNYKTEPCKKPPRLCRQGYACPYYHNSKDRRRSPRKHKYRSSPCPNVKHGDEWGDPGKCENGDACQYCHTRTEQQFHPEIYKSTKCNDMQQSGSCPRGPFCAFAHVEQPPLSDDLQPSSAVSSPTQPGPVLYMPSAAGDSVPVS
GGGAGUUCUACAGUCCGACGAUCGAGUCUUCACCAACCACCUUACUUGCUACAAAGAAAAAUAUUGGACGAUUUCAUCCCUAUACCCGAUAUGAAAAUAUAACUUUCAAUUGCUGCAAUCACUGCCGGGGAGAACUGAUUGCCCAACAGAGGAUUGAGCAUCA: 0.595 ratio
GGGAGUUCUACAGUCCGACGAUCAGAUUGAUUUUCUUAGACUCCAUUAAGUCCAAAUCCAAAGACUCUGUGUGGGAAAAAGAAACCGAAAUACUUAUAGAGGAAAAUGAGGACCUCAAACAACAAUGUAUUCAGCUAAAUGAACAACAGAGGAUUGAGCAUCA: 0.168 ratio
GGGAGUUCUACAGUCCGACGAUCUGUGGAAUCAAGCACCUUCAUUCUGCUGGAAUUAUUCAUCGGGACUUAAAGCCCAGUAAUACCGCCGUAAAAUCUGAUUGCACUUUGAAGAUUCUUGACUUCGGUCUGGCCAGGACUGCACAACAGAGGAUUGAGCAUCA: 0.235 ratio
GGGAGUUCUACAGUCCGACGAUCCUUGGUGUUCAUAUGUAUCUUUUAAUUUUUUUGAAAUUUGUUCAAGCUGUCAUUCCAACAACCGAAUAUGACUACACAAGACACUUCACAAUGUAGUGGAGAGGCUAUAGAGUCUAUCCUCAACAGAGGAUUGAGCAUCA: 1.25 ratio
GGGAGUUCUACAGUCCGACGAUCCCUCUGGAAGCCUUGCGCAGAGCUUACUUUGUAAUUGUUGGAGAAUAACUGCUGAAUUUUCCGCUGUUUUGAGUUGAUUCGCACCACUGCACCACAACUCAAUAUGAAAACUAUUUAACUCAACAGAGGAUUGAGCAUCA: 0.0987 ratio
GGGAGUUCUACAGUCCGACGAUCAACCAAGGCAUUGCUCCCGUCCAGGUCUGUACCAAUCUCUUGAUCAAGCAAGUGGUGGAAGCCGCUUGUGGCUCACAUCAUUCAAUGGCUCUGGCAGCUGAUGGAGAGGUGUUUGCUUGGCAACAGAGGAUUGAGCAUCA: 0.0741 ratio
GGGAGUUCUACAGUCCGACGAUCUAUAGUGGGGUUGGUAAUUCAUCAGUUUCUGGCCAUGGUAUUCUCCCAAGCUAUCAGGAACCCGUGGAAGACCGUUUCAGGAAACCUCAUGCUUUUGCUGUGCCUGGACAGUCUUAUCAGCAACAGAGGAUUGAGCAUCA: 0.296 ratio
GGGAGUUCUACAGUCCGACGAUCCUGUUUUGACAGCCACACAAUCUUGGCAUGUAUUAAGGAAAAAAAAAAUCCCUGUUGAAGCCGUUUUUCCACCUAUCAGCACUGAGUAAAUGCCAUAACUCCGCGGAAAUGGUCUAAAUACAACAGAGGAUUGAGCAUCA: 0.195 ratio

Sample 5 — target: CCNB1, cyclin fold, Cln2 fusion (human); technique: yeast growth competition, sequencing; matrix: yeast; notes: weak parent motif; reference: not given; reading: higher = stronger binding; measurement: normalised enrichment score
Parent: HASPIN docking peptide (human); ASLRSVLFGLMNS
ASLRSVAFGLMNS [L7A]: 0.032
ASLRSVLFGLANS [M11A]: 0.502
ASLRSVLFGAMNS [L10A]: 0.639
ASLRSVLFGLMAS [N12A]: 0.658
AALRSVLFGLMNS [S2A]: 0.0135
ASLRSVLFALMNS [G9A]: 0.0552

Excerpt of the above (sample 2):
CCTCGGAG: -0.301
CGAACCAG: -0.0834
GAACCGCC: -0.245
AGCTTCAA: 0.176
